Results pooled from the literature.
Protocols differ between the studies behind these lines. “And” joins repeats or separate records; there may be more than shown. ± marks the error that the study gave. In brackets after ≈: the same amount, converted by molar mass.

For `CSC(=S)N/N=C(\C)c1ccc(Nc2nnc(-c3ccc(Cl)cc3)c3ccccc23)cc1`, the viability was 17.6% (HepG2; cell growth or viability, MTT; 0.312 µM, 24 h).
`CCCCCCCCCCCC(=O)N[C@@H](CO)C[C@@H](O)c1cccc(CCCCCC)c1` has a ceramide level of 29100 pmol/sample and 33100 pmol/sample and 29700 pmol/sample (HeLa; CERT activity, HPLC-MS/MS lipidomics, item: ceramide 16; 1 µM, 24 h, not cell-number normalised).
`C=C1C[C@]2(C(=O)OC)C=C(C(=O)Nc3cccc(C(=O)Nc4ccc(Nc5nccc(-c6cccnc6)n5)c(C)c4)c3)C(=O)[C@H]1C2` has a reporter activity of 0.0679 (HEK293 AP1 reporter cells; AP-1 reporter gene, inhibitor; 10 µM, 6 h, unit not given, together with: PMA; relative to: PMA alone).
For `C=C1C(=O)OC2C1CCC(C)(O)C13C=CC(C)(C21)C1(C3)C(=O)OC2C3C(C)C(=O)CC3C(=C)CC(OC(C)=O)C21` (centres unmarked), protein level read “decreased” (AML12; Western blot, item: ACLY, ACC, FASN, SCD1; concentration not given, together with: palmitate/oleate).
The Emax of `O=S(=O)(C1CC2OC1C(c1ccc(O)cc1)=C2c1ccc(O)cc1)N1CCCc2ccccc21` (centres unmarked) is reported as 0.4% (MCF7 3xERE-luc, steroid-deprived; ERE luciferase reporter, agonist; relative to: vehicle).
`CN(C)Cc1nc(Nc2ccc(-c3cnc4cc(F)ccn34)c3c2C(=O)NC3)ccc1C1CCOC1` (centres unmarked) gave an EC50 of 12 nM (human CD4 T cells; cytokine induction, item: IL-2; together with: anti-CD3/CD28).
With `Cc1ccc(-n2cc(CSc3nc4ccccc4n3Cc3cn(-c4ccc(C)cc4)nn3)nn2)cc1` the cytotoxicity was 6.14% (HEK293; MTT; 3.91 ppm).
For `COc1c(C)c(OC(=O)c2ccccc2)c(C)c(OC(=O)c2ccccc2)c1C(=O)/C=C/c1ccccc1`, the selectivity index was 1.03 (FaDu; SRB; relative to: normal over FaDu IC50).
For `Cn1c(=O)n(C2CCC(=O)NC2=O)c2ccc(C3CCN(CC(=O)Nc4cccc(CS(=O)(=O)N5CC[C@H](Nc6cccc(-c7sc(C(=O)O)c(OCC(=O)O)c7Cl)c6)CC5(C)C)c4)CC3)cc21` (some centres unmarked), the pSTAT1 level was 29.2% and 21% and 29.3% and 26.7% and 19.2% and 20% (B16-F10; HTRF, item: phospho-STAT1 Tyr701; 0.014 µM, together with: IFN-γ; relative to: min-max normalised).
`Cn1ncc2cc(-c3cncc(Cl)c3N3CCC4(CCNC4=O)CC3)ccc21` — result for “log2 fold change”: 2.75 (LS174T; gene expression, microarray, item: ACTG2 mRNA; concentration not given, 4 h; relative to: untreated cells).
`CN(C)c1ccc(-n2cc(COC(=O)[C@@]3(C)C=C(C(=O)OC(C)(C)C)C(=O)CC3)nn2)cc1` has a pERK/ERK ratio of 0.0532 (HeLa; quantitative western blot; concentration not given, 30 (unit not given), together with: EGF).
`C=C1C(=O)OC2C1CCC(C)(O)C13C=CC(C)(C21)C1(C3)C(=O)OC2C3C(C)=CC(=O)C3=C(C)CC(OC(C)=O)C21` (centres unmarked) has a maximum inhibition of 16.7 ± 2.13% (AML12 mouse hepatocytes; lipid accumulation, Nile Red staining; maximum safe concentration, 24 h, together with: palmitic acid/oleic acid).
`CN1CCN(C(=O)c2ccc(-c3cc4c(N5CCC[C@H](C(=O)NCc6ccc(OC(F)(F)F)cc6)C5)ncnc4[nH]3)cc2)CC1` has an inhibition of 80% (KARPAS-299; cell growth or viability, MTT; 1 µg/mL, 72 h).
`COc1ccc(NC(=O)c2ccc3[nH]c(-c4ccc(N(C)C)cc4)nc3c2)cn1` gave a GI50 of 5030 nM (YAPC; cell growth, CellTiter-Glo).
Under “IC50 fold reduction”, `CCCC(=O)[O][Pt]([Cl])([Cl])[O]C(=O)CCC.N.N` is recorded as 1.3 fold (A549/DDP cisplatin-resistant; together with: survivin siRNA transfection; relative to: non-transfected over transfected).
`CCC(CC)n1c(Cc2ccco2)nc2cc(C(=O)N[C@@H](CC(=O)O)c3ccccc3)ccc21`: LDH release “decreased” (H9c2; concentration not given, 48 h, together with: ISO and MCM).
`CCNc1cc2c(cc1C)C1(c3cc(C)c(NCC)cc3O2)c2ccccc2C(=O)N1N=Cc1c[c-]c(-c2ccccn2)cc1.Cc1c(C)c(-c2ccc(-c3ccccc3)cc2)[c-](C)c1C.[Cl-].[Ir+3]` — result for “JC-1 aggregate cells”: 96.14 ± 0.27% (A549; flow cytometry; 2.0×IC50, 24 h).
`C=CC(=O)N1[C@H](c2ccc3c(c2)OCO3)c2[nH]c3ccccc3c2C[C@@H]1C(=O)NC1CC1` gave a neuron degeneration of 77.2% and 72.7% (rat DRG neurons; 0.04115 µM, 48 h, together with: vincristine 40 nM).
For `COc1ccc(Br)c2c1OC1=C(C(=O)CCC1)C2c1c[nH]c2ccccc12` (centres unmarked), the IC20 was 51.5 µg/mL (≈ 121 µM) (3T3-L1; cell growth or viability, MTT; 72 h).
For `COc1cccc(OC)c1-c1cc(C(=O)NC2(C(=O)O)C3CC4CC(C3)CC2C4)nn1-c1ccc(C(=O)N(C)CCOCCOCCN(C)C(=O)[C@H](CCCCNC(=O)[C@H](CC(C)C)NC(=O)C2OC2C(=O)O)NC(=O)CN2CCN(CC(=O)[O-])CCN(CC(=O)[O-])CCN(CC(=O)[O-])CC2)cc1C(C)C.[177Lu+3]` (mixture of isomers), the surface-bound fraction was 0.67 ± 0.05% (HT-29; concentration not given, 120 min; relative to: added activity).
`COc1ccccc1-c1ccncc1C(=O)Nc1nnc(OCc2ccc(Cl)cc2)s1`: “change in MMEJ frequency” 2.1% and 2.4% and 3% (U2OS EJ2-GFP; EJ2-GFP reporter, GFP+/dsRed+ ratio; 20 µM, together with: I-SceI transfection; relative to: DMSO).
For `Cc1ccncc1.[Cl-].[Cl-].[Ru+2].c1cc(-c2ccc3cccnc3n2)nc(-c2ccc3cccnc3n2)c1.c1ccc2cc3nc4c5cccnc5c5ncccc5c4nc3cc2c1`, the EC50 was 333 ± 33 nM (SK-MEL-28; cell viability; visible light 400-700 nm, 100 J/cm2).
For `Cc1cc(Cl)cc(-c2ccnc3cc(CN4C(=O)C5C(C4=O)C5(C)C)sc23)c1C[C@@H]1CNCCO1` (some centres unmarked), “G1 phase cells” read 73.5% (CHP-212 parental; PI flow cytometry; 1 µM, 24 h).
`Cc1ncsc1-c1ccc(C(C)NC(=O)C2CC(O)CN2C(=O)C(NC(=O)CCCCCCCCCCN2CCCC(Nc3ncc(Cl)c(Nc4ccccc4S(=O)(=O)C(C)C)n3)C2)C(C)(C)C)cc1` (centres unmarked): “log2 fold change” -1.62 (22Rv1; RNA-seq, item: ZNF133 mRNA; concentration not given; relative to: DMSO).
Under migration distance, `COc1cc(N2CCOCC2)ccc1Nc1ncc(Cl)c(Nc2ccccc2NS(C)(=O)=O)n1` is recorded as “decreased” (PC-9 del19/T790M/C797S; scratch wound healing; above 0.3 µM, 18 h; relative to: control).
`CN1CCCNC(=O)c2cccc(c2)C(=O)NCCCN(C)CCCNc2cccc3c2C(=O)c2cccc(c2C3=O)NCCC1` — result for “log2 fold change”: 1.24 (SAS; RNA-Seq, item: ENDOV mRNA; 1 µM, 6 h; relative to: untreated cells).
For `Cc1cc(NC2CCN(C)CC2)ccc1-c1cc2c(N3CCC[C@H](C(=O)NCc4ccc(OC(F)(F)F)cc4)C3)ncnc2[nH]1`, the inhibition was 71.9% (KARPAS-299; cell growth or viability, MTT; 0.2 µg/mL, 72 h).
Under “G1 phase cells”, `COc1cc(N2CCN(C(=O)CCOCCNC(=O)[C@@H]3CCCN3)CC2)ccc1Nc1ncc(Cl)c(Nc2ccccc2P(C)(C)=O)n1` is recorded as 60% (NCI-H3122; flow cytometry; 500 nM, 24 h).
For `COC(=O)c1cc(NC2=NC(=O)C(=Cc3ccc(N(C)C)cc3)S2)ccc1OC(C)=O`, the fold change was 0.272 (MCF7; item: ESCO2 mRNA; 0.81 µM (IC50), 24 h; relative to: DMSO).
`CC(C)c1ccc(N(C)c2ccc3c(c2)OCC[C@H]3CNc2cnccc2C(=O)O)cc1` gave an IC50 of 8.4 nM (NCI-H2291; cell growth or viability, ATP luminescence; 7 days).
`CC(C)Cc1ccc(C(C)C(=O)[Se]CC(=O)Nc2cccc(C(F)(F)F)c2)cc1` (centres unmarked) has a GI50 of 1870 nM (NCI60 CNS cancer panel; five-dose screen).
`N=C(N)NCCC[C@@H](NC(=O)[C@H](Cc1ccccc1)NC(=O)[C@H](Cc1ccccc1)NC(=O)[C@@H](CCCNC(=N)N)NC(=O)CCCC[C@@H]1SC[C@@H]2NC(=O)N[C@@H]21)C(N)=O` — result for “reduction of oxidative stress”: > 80% and 80% (MDBK cells; item: CM-H2DCFDA fluorescence; 1 µM, 3 days, serum-free; relative to: untreated).
With `CCOc1cncc(-c2ccc(NC(=O)C3(c4ccnc(NS(=O)(=O)C5CC5)n4)CCOCC3)nc2)n1` the IC50 was 10000 nM (FaDu; cell proliferation, CellTiter-Glo; 72 h).
With `CCN(CC)CC(=O)Nc1cccc(-n2cc(-c3ccc4ccc(-c5cn(-c6cccc(NC(=O)CN(CC)CC)c6)nn5)cc4c3)nn2)c1` the fold regulation was -2 (RCC4; PCR angiogenesis array, item: IL6; 5 x IC50, 6 h, normoxia; relative to: untreated).
For `CNS(=O)(=O)Nc1nccc(Cc2c(C)c3ccc(Oc4ncccc4F)cc3oc2=O)c1F`, the IC50 was 7.35 nM (SW-403; cell viability; 7 days).
With `COC(=O)c1cc(NC2=NC(=O)C(=Cc3ccc(C)cc3)S2)ccc1OC(C)=O` the metabolite level was -1.12 fold change (MCF7; GC-MS, item: 11-Eicosenoic acid; 1 µM; relative to: DMSO).
For `CO[C@@H]1[C@@H](OC(N)=O)[C@@H](O)[C@H](Oc2ccc3c(O)c(NC(=O)c4ccc(O)c(CC=C(C)C)c4)c(=O)oc3c2C)OC1(C)C`, the colony count was 14 (HCT-116 BRCA2-/-; 150 µM, replicate 1).
The GI50 of `O=C(C[Se]C(=O)c1ccc2ccccc2n1)Nc1cccc(C(F)(F)F)c1` is reported as 1840 nM (NCI60 CNS cancer panel; five-dose screen).

Excerpt of the above:
Under migration distance, `COc1cc(N2CCOCC2)ccc1Nc1ncc(Cl)c(Nc2ccccc2NS(C)(=O)=O)n1` is recorded as “decreased” (PC-9 del19/T790M/C797S; scratch wound healing; above 0.3 µM, 18 h; relative to: control).
For `COc1cccc(OC)c1-c1cc(C(=O)NC2(C(=O)O)C3CC4CC(C3)CC2C4)nn1-c1ccc(C(=O)N(C)CCOCCOCCN(C)C(=O)[C@H](CCCCNC(=O)[C@H](CC(C)C)NC(=O)C2OC2C(=O)O)NC(=O)CN2CCN(CC(=O)[O-])CCN(CC(=O)[O-])CCN(CC(=O)[O-])CC2)cc1C(C)C.[177Lu+3]` (mixture of isomers), the surface-bound fraction was 0.67 ± 0.05% (HT-29; concentration not given, 120 min; relative to: added activity).
